Assay results pooled from the literature.
Each numbered part is a random draw from the data of one study; scales do not carry over between parts. Changes are numbered by the printed parent chain.

Study 1 — method: RNA Bind-n-Seq; molecule type: RNA; matrix: in vitro; tested at: 365 nM; baseline: no-protein control; direction: higher = stronger binding
Target: RNA binding protein fox-1 homolog 2, RRM domain, GST-SBP tag (RBFOX2, Homo sapiens, UniProt O43251-10, residues 100-194)
Setting: natural RNA segment, single round, ends assumed
Shared flanks, not repeated: GGGAGUUCUACAGUCCGACGAUC … UGGAAUUCUCGGGUGCCAA
Residues (chain): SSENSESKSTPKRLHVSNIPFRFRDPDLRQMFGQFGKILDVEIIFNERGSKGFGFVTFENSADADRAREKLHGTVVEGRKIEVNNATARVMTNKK
`AAUUUUGUUCAAAAUCCGAAUAAUAAUAGAUAACAGAAAUAACAGUCUUAAAGGCUGACUGGGAGGCCAUGAACUGUUCACAAGGAGCACGGCUCUGCAGGCGUUGAAUA` — result for “RBNS enrichment (R)”: 0.383.
`AGACUUAAAAAGACUGCCCUUGACUCCUUGACACUAUAUCAAGUGCUGUGUAAGAGAGACUGGUCCGUGGGACCAGCCACACACAUUACCUCUUCCACUUGAAAUGACUC` — result for “RBNS enrichment (R)”: 0.3.
For `GGAAAAGAAGUUUUCUUACAAACCAAAGGGCUUUAGGGAGGACGUUAGGGUUAUAGCUGUGGACUGAAGAGUUGCCUUCCAAAGGAAAGAGGACCAAAUUGCUUACAUGA`, “RBNS enrichment (R)” read 0.745.
Under “RBNS enrichment (R)”, `GCCAGUAAUUAACAUGGCUGGGCAGAAGCAGAAGCCGACACUGUGACGACGCUCCGUGUUCUUUAUUAAAAACGAUGUCCCGCACUUAUUACUAGUGGAAUCAACUGGAA` is recorded as 0.335.
For `CUCAUAUAGCCCUCAGUCACUGAGGGAGUCCCCCGCAGGAUUGGAGAGGCACAUUCCCUUGGGACAGAGGCUACAGGUUGGAGCUUUUUUUCCCCUGUCCCCCAACCCCA`, “RBNS enrichment (R)” read 0.379.
For `CAUGCACACGUGUGCAUUUGUUUGUAUACAUAUAUUUGUCCUUCGUAUAGCAAGUUUUUUGCUCAUCAGCAGAGAGCAACAGAUGUUUUAUUGAGUGAAGCCUUAAAAAG`, “RBNS enrichment (R)” read 0.401.
`AUACAUAUAUACAUUCAUAUACGACAAAGUAGGAGCUGUCCCCUUAGGAUGCAUAGCUGCCCCUAGGGUACGUAGCUGAACACUGACAAUGGCGUUCUUCUGAAAGAGCC`: “RBNS enrichment (R)” 0.212.
Under “RBNS enrichment (R)”, `AGCCUUUUAUUGAGUGGGGCAAGUGCUGGGCUGUGGUCGUGCCCUGACAGCAUCUUCCCCAGGCAGCGGCUCUGUGGAGGAGGCCAUACUCCCCUAGUUGGCCACUGGGG` is recorded as 0.497.

Study 2 — target: ATF2, bZIP domain (human); method: DHFR protein complementation; matrix: yeast; baseline: wild-type JUN-FOS pair; direction: higher = stronger binding
Setting: single substitutions, most at no-binding floor
Parent: JUN, bZIP domain (human); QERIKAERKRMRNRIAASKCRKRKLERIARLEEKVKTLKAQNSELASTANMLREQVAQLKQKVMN; partner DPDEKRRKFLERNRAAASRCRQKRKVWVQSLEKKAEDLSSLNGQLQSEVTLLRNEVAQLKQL
`A29F` has a binding fitness of -1.36 natural log.
`Q55V` has a binding fitness of -1.45 natural log.
`V35H` gave a binding fitness of -1.52 natural log.
`K39C` has a binding fitness of -1.44 natural log.
`A46C` gave a binding fitness of -1.38 natural log.
For `L59R`, the binding fitness was -1.4 natural log.
`E33V` has a binding fitness of -1.48 natural log.
For `E44T`, the binding fitness was -1.5 natural log.
With `E33R` the binding fitness was -1.41 natural log.
`N42F` gave a binding fitness of -1.47 natural log.
The binding fitness of `K39P` is reported as -1.49 natural log.
`M51P` gave a binding fitness of -1.51 natural log.
With `S43Q` the binding fitness was -1.26 natural log.
The binding fitness of `K36C` is reported as -1.32 natural log.
For `A46D`, the binding fitness was -1.47 natural log.
The binding fitness of `Q55M` is reported as -1.44 natural log.
For `K34R`, the binding fitness was -1.29 natural log.

Study 3 — method: DHFR PCA, deep sequencing; matrix: yeast; with: (+)-ABA 1.4 µM; baseline: wild-type fitted maximum; direction: higher = stronger binding
Target: ABI1, truncated, D143A, DHFR fusion (Arabidopsis thaliana)
Setting: methotrexate growth selection, single substitutions
Parent: PYL1, truncated, DHFR fusion (Arabidopsis thaliana); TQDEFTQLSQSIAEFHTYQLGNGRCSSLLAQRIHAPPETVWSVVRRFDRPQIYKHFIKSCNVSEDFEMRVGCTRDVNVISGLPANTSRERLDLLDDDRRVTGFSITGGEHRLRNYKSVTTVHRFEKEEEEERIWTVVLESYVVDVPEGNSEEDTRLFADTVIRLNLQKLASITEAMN; partner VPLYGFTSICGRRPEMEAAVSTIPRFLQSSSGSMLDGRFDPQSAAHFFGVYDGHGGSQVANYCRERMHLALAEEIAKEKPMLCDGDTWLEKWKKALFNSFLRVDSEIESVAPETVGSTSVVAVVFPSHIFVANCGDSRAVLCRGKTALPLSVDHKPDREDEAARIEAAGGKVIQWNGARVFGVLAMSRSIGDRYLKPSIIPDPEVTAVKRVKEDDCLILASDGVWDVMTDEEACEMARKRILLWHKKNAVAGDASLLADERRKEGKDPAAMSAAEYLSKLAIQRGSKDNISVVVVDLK
`F15T` — result for “relative binding score”: 4.66%.
`S80L`: “relative binding score” 15.7%.
Under “relative binding score”, `T101N` is recorded as -1.86%.
`G102M`: “relative binding score” -2.57%.
For `V78W`, “relative binding score” read 63.4%.
`F66W`: “relative binding score” 38.2%.
Under “relative binding score”, `S59Y` is recorded as 4.4%.
Under “relative binding score”, `N149G` is recorded as 44.8%.
`A35Q`: “relative binding score” -24.9%.
`R24F`: “relative binding score” -3.36%.
`S26W`: “relative binding score” 11.7%.
Under “relative binding score”, `S87Q` is recorded as 26.8%.
For `D92H`, “relative binding score” read -2.68%.
`T1F` — result for “relative binding score”: 44.9%.
`R111E` — result for “relative binding score”: -9.51%.
`N61C`: “relative binding score” 54.2%.
Under “relative binding score”, `Y141K` is recorded as -15.1%.
`Y115T`: “relative binding score” -10%.
For `Q19C`, “relative binding score” read 41.2%.
`W134C` — result for “relative binding score”: 66.4%.
`G71Q`: “relative binding score” 2.11%.
`E131A`: “relative binding score” 69.8%.
`H110M` — result for “relative binding score”: 19.5%.
`G108P`: “relative binding score” -13.5%.
Under “relative binding score”, `M68L` is recorded as 83.1%.

Study 4 — method: Sort-seq; measured: YFP reporter; matrix: E. coli; setting: PhoQ-PhoP variant library; with: 10 µM Mg2+; baseline: high Mg2+ state; direction: higher = stronger signaling
Substance: PhoQ, residues 284 288 289 292 302 303 SIHMAM
It gave 0.197 for fold induction (PhoP, residues 12 14 15 18 19 LHHYF (Escherichia coli, UniProt P23836)).
For PhoP, residues 12 14 15 18 19 TPWTL (Escherichia coli, UniProt P23836): fold induction read 1.74.
The fold induction was 17.8 (PhoP, residues 12 14 15 18 19 VGHWL (Escherichia coli, UniProt P23836)).
It gave 14.1 for fold induction (PhoP, residues 12 14 15 18 19 NFFVT (Escherichia coli, UniProt P23836)).

Study 5 — target: CCND1, cyclin fold, Cln2 fusion (human); method: yeast growth competition, sequencing; matrix: yeast; setting: weak parent motif; baseline: not given; direction: higher = stronger binding
Parent: CENPC docking peptide (human); VKTKKRLNFDDKV
`F9A`: “normalised enrichment score” -0.0123.
`K12A`: “normalised enrichment score” 0.661.
For `K5A`, “normalised enrichment score” read 0.149.
Under “normalised enrichment score”, `K5R` is recorded as 2.08.
Under “normalised enrichment score”, `V1A` is recorded as 0.505.
Under “normalised enrichment score”, `V13A` is recorded as -0.394.
For `D11A`, “normalised enrichment score” read 0.079.
